Published values pooled from the literature.
Target: cAMP-dependent protein kinase catalytic subunit PRKX (PRKX, Homo sapiens, UniProt P51817)
Residues used in one study (P51817 1-358): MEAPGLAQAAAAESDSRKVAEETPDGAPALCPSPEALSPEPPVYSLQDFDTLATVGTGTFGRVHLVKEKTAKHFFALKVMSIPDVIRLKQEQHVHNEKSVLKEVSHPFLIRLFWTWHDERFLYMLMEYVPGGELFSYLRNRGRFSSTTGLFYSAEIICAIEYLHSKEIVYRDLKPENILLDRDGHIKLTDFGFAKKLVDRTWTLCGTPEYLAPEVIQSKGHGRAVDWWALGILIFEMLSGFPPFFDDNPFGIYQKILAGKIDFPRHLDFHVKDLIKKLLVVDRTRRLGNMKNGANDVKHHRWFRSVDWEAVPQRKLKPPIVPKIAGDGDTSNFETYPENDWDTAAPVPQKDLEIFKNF

For CN1CC[C@@H](COc2cnc(C#N)cc2-c2ccn3nc(NC(=O)C4CC4)cc3c2)C1, the inhibition was 14% (enzyme activity, inhibitor; 1 µM).
For COc1c(OCCCN2CCOCC2)ccc2c1N=C(NC(=O)c1cnc(N)nc1)N1CCN=C21, the remaining activity was 118% (kinase activity, inhibitor; 1 µM; relative to: untreated control).
Under “activity vs control”, O=C(Cc1ccc(OCc2ccccc2)cc1)NC1(C(=O)O)CCN(C(=O)c2ccc(-c3cccc(Cl)c3)cc2)CC1 is recorded as 113% (enzyme activity, inhibitor; 10 µM).
For COc1ccc(NC(=O)Nc2ccc3c(c2)C(=O)N(C(C)CO)CC(C)C(CN(C)Cc2ccc4c(c2)OCO4)O3)cc1 (stereo not drawn), the remaining activity was 99% (kinase activity, KinaseProfiler; 0.03 µM, species human; relative to: control).
With Cc1cnc2nc1Nc1cccc(c1)COC/C=C/COCc1cc(ccc1OCCN1CCOCC1)N2 the remaining binding was 98% (binding; 0.1 µM).
With CNC(=O)C1CCN(c2cc(C)c(F)cc2NC(=O)c2ccc(-c3cc(O)ccc3C)c(C)c2)CC1 the remaining binding was 89% (binding, competition with immobilised ligand; 1 µM).
With C=CC(=O)Nc1cccc(-c2cnc3[nH]cc(C(=O)NC(C)(C)C)c3n2)c1 the inhibition was 3% (enzyme activity, inhibitor; 0.1 µM).
O=C=[N][Ru-4]123([n]4c5ccc(O)cc5c5c6c(c7cc(F)c[n+]1c7c54)C(=O)NC6=O)[S+]1CC[S+]2CC[S+]3CC1 (stereo not drawn) has a remaining activity of 66% (enzyme activity; 100 nM, human enzyme, added: 10 µM ATP; relative to: untreated).
With CN1CCN(Cc2ccc(-c3ccc(CO[C@H]4CCC[C@@H]4NC(=O)c4cc(-c5cnn(C)c5)cnc4N)cc3)cc2)CC1 the inhibition was 3% (enzyme activity, inhibitor; 0.1 µM).
The remaining activity of COC(=O)[C@@]1(C)C=C(C(=O)Nc2cccc(C(=O)Nc3ccc(Nc4nccc(-c5cccnc5)n4)c(C)c3)c2)C(=O)CC1 is reported as 102% (enzyme activity, inhibitor, radiometric; 1 µM).
The inhibition of Cc1cccc(O[C@H]2CCC[C@@H](C(C)CNCc3ccncc3)C2)c1 (relative stereo) is reported as 0% (enzyme activity, inhibitor; 10 µM).
The remaining binding of COc1cc(Nc2nccc(-c3cnn4nc(OC)ccc34)n2)cc(C(F)(F)F)c1 is reported as 100% (binding, competition with immobilised ligand; 1 µM).
NC(=O)[C@@H](O)C[C@H]1CCc2sc3ncnc(O[C@H]4CC[C@H](N5CCOCC5)CC4)c3c21 has an inhibition of 5% (enzyme activity, inhibitor; 10 µM).
With Nc1ncc2c(n1)-c1c([nH]c3ccc(C4=CCOCC4)cc13)CCC2 the remaining binding was 98% (binding, competition with immobilised ligand; 1 µM).
C=CC(=O)N1CCCC(n2c(=O)c3ncccc3n(Cc3ccc(Oc4ccccc4)cc3)c2=O)C1 (stereo not drawn) has a remaining binding of 94% (cell-free assay, competition with immobilised ligand; 1 µM).

Excerpt of the above:
The remaining binding of COc1cc(Nc2nccc(-c3cnn4nc(OC)ccc34)n2)cc(C(F)(F)F)c1 is reported as 100% (binding, competition with immobilised ligand; 1 µM).
NC(=O)[C@@H](O)C[C@H]1CCc2sc3ncnc(O[C@H]4CC[C@H](N5CCOCC5)CC4)c3c21 has an inhibition of 5% (enzyme activity, inhibitor; 10 µM).
